Results of several laboratories.
Lines come from different studies, so protocols differ. ± gives the spread as reported.
FGFR1: Fibroblast growth factor receptor 1 (FGFR1, Homo sapiens, UniProt P11362)
Sequence of UniProt P11362 (whole entry, looked up): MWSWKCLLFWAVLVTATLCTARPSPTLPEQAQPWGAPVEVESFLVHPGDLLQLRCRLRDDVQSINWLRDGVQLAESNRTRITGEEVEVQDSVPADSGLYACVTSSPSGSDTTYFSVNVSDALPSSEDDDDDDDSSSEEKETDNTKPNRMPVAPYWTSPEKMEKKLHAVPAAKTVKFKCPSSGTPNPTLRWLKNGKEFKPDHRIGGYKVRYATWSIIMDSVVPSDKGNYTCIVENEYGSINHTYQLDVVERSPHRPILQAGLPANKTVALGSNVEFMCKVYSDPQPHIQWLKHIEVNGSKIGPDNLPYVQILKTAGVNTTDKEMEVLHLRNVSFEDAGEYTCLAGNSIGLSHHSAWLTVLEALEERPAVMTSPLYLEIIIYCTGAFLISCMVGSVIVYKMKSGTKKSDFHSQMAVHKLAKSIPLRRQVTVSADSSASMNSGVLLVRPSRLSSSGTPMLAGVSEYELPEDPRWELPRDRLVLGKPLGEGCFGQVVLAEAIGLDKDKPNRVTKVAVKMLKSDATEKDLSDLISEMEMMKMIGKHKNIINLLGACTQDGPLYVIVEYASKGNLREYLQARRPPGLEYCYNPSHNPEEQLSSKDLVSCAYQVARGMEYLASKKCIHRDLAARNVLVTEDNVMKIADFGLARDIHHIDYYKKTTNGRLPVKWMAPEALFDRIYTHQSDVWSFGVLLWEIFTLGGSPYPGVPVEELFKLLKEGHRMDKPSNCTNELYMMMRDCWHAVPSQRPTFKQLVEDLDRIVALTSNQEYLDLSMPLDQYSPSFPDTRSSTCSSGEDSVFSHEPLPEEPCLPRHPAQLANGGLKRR
P4HB: Protein disulfide-isomerase (P4HB, Homo sapiens, UniProt P07237)
Sequence of UniProt P07237 (whole entry, looked up): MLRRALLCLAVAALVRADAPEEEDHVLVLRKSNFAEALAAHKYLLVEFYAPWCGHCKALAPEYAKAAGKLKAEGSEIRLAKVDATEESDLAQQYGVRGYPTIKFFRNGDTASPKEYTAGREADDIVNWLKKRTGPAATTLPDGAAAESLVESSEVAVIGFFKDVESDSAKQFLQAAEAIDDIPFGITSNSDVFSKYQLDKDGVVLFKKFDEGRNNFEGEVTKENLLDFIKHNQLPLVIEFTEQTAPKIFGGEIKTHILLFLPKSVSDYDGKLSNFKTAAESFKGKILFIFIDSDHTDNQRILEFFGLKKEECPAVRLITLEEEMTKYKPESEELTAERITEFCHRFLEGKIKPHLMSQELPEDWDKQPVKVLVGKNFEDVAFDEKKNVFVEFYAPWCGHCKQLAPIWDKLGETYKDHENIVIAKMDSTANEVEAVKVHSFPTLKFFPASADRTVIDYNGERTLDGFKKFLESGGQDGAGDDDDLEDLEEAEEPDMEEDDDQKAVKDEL
PDE5A: cGMP-specific 3',5'-cyclic phosphodiesterase (PDE5A, Homo sapiens, UniProt O76074)
Proteasome subunit beta type-10 / Proteasome subunit beta type-3: Proteasome subunit beta type-10 / Proteasome subunit beta type-3 (Homo sapiens, UniProt P40306+P49720)
Sequence of UniProt P49720 (whole entry, looked up): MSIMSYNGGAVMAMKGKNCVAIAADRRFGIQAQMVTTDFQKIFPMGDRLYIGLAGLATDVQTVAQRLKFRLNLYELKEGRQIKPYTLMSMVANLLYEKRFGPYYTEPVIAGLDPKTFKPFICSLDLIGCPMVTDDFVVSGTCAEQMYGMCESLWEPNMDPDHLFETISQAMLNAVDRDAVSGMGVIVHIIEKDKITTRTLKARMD
Sequence of UniProt P40306 (whole entry, looked up): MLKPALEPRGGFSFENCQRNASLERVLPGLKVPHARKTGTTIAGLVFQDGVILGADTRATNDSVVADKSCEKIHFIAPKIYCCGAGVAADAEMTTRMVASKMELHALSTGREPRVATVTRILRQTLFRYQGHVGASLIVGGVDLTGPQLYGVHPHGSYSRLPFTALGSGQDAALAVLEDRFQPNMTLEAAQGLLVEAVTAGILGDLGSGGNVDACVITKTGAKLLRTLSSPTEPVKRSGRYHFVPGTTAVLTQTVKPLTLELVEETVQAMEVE
Sequence of UniProt Q8N8U2 (whole entry, looked up): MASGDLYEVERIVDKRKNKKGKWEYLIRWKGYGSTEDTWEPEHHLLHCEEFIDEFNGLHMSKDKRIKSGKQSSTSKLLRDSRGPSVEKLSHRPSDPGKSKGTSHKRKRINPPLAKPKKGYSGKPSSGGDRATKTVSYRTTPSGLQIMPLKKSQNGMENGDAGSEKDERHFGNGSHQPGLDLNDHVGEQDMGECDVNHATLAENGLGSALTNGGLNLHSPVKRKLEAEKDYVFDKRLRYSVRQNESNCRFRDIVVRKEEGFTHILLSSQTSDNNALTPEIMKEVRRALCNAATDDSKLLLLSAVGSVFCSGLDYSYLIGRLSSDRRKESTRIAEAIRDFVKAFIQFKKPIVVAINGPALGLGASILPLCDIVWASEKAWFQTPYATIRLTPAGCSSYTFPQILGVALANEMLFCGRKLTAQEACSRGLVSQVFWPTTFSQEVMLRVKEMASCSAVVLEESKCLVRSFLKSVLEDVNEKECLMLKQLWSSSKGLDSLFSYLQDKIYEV
Sequence of UniProt P28236 (whole entry, looked up): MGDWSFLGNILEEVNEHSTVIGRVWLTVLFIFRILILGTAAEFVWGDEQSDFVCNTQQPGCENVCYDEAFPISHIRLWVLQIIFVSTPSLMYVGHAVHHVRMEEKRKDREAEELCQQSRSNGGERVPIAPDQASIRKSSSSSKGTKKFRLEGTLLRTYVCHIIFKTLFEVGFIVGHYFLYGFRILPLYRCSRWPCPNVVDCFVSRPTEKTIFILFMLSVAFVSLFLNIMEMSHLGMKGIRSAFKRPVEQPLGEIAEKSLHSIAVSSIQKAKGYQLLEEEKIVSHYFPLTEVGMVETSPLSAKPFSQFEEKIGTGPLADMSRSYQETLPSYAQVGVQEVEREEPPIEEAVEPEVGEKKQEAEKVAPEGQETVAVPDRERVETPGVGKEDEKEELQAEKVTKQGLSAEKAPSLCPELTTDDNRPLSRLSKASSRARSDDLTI
Sequence of UniProt Q9NNX6 (whole entry, looked up): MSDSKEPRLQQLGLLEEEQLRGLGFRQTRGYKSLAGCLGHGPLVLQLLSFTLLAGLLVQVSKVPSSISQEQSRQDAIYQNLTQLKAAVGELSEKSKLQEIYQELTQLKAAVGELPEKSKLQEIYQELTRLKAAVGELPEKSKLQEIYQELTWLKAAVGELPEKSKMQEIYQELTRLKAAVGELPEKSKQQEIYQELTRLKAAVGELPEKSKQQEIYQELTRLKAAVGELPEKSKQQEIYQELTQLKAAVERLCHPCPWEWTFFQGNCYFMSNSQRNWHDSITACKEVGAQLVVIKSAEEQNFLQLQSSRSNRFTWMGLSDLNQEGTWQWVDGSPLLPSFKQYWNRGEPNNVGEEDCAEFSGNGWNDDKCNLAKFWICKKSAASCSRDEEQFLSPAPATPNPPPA
Sequence of UniProt Q99496 (whole entry, looked up): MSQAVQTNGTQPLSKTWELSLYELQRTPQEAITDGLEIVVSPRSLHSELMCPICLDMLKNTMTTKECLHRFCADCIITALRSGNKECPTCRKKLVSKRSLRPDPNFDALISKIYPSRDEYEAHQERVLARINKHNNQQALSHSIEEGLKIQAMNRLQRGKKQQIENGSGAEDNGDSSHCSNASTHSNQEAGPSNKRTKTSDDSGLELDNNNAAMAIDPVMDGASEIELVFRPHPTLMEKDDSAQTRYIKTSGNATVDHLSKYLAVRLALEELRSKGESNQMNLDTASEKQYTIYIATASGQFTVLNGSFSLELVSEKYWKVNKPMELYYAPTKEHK
Sequence of UniProt Q96JM7 (whole entry, looked up): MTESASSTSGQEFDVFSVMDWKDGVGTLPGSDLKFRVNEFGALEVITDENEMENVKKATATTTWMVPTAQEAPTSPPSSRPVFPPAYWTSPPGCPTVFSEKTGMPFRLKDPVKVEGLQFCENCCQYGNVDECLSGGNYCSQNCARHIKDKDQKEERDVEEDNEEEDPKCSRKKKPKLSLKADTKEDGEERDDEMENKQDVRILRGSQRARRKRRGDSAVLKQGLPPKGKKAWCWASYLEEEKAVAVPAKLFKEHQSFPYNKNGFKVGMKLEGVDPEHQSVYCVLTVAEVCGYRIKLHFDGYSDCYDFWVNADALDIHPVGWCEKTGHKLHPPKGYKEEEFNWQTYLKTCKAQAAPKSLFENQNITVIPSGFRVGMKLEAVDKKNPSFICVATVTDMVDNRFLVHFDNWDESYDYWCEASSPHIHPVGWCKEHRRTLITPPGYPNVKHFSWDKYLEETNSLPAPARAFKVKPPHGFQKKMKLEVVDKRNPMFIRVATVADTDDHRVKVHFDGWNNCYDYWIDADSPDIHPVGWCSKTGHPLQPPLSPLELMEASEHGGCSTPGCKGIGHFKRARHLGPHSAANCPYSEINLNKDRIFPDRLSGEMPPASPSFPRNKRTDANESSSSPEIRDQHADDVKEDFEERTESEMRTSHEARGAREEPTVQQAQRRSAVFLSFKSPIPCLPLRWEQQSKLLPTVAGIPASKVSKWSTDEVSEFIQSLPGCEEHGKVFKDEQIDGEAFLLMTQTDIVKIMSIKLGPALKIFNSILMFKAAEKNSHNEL
Sequence of UniProt Q969F8 (whole entry, looked up): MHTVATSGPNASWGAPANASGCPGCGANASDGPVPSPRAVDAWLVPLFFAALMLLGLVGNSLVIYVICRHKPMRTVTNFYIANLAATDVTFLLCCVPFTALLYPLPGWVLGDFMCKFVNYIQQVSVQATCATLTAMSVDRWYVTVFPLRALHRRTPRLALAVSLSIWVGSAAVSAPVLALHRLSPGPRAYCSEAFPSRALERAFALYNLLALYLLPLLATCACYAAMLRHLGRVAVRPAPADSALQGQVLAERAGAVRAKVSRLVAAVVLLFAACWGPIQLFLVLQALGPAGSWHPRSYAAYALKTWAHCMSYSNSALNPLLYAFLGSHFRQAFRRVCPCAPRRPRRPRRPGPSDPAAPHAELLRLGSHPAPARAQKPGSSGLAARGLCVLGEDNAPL
Sequence of UniProt P28845 (whole entry, looked up): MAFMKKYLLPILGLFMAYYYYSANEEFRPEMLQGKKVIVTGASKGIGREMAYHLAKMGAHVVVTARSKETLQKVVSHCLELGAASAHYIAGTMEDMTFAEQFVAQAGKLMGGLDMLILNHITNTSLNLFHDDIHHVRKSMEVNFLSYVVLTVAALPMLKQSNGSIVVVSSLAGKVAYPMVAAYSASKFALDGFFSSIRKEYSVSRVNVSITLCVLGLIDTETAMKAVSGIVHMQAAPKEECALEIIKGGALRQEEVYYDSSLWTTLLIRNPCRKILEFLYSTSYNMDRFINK

| Structure (SMILES) | target | assay | test system | setting | IC50 |
| --- | --- | --- | --- | --- | --- |
| Cc1ccc(CNC(=O)[C@H](CCc2ccccc2)NC(=O)[C@@H](N)CCc2ccccc2)cc1 | 20S proteasome (Plasmodium falciparum, UniProt A0A5K1K7U1+Q8IJT1) | β5 activity, inhibitor | – | with: Suc-LLVY-AMC, PA28α-activated | 0.311 µM |
| NCc1cccc(C2CCN(C(=O)c3cccc(OCC(=O)C4(O)CCC4)c3)CC2)c1 | Tryptase beta-1 (Homo sapiens, UniProt Q15661) | enzyme activity, inhibitor, AMC substrate release | – | – | 0.367 µM |
| COc1cc2nccc(Oc3ccc(NC(=S)Nc4ccccc4F)c(Cl)c3)c2cc1C(N)=O | FGFR1 | – | – | – | 2.8 µM |
| Cc1cc(C)n2c1C=C1C=CC(CCC(=O)N3CCN(CCCOc4ccc5nccc(C(=O)NCC(=O)N6CC(F)(F)C[C@H]6C#N)c5c4)CC3)=[N+]1[B-]2(F)F | Fap (Mus musculus, UniProt P97321) | enzyme activity, inhibitor, fluorescence | – | – | 0.00262 µM |
| O=C(NCCCN1CCC(Cc2ccccc2)CC1)c1ccc(-c2ccccc2)cc1 | SLC6A4 (Homo sapiens, UniProt P31645) | transporter uptake | – | – | 0.04 to 0.07 µM |
| NCc1ccc(NC(=O)c2ccc3ccccc3c2O)cc1 | TMPRSS2 (Homo sapiens, UniProt O15393) | enzyme activity, inhibitor, fluorescence | – | with preincubation | 12.5 µM |
| CCCCn1c(-c2ccc3nn(CCC)c(Cc4ccc(-c5ccccc5-c5nn[nH]n5)cc4)c3c2)nc2ccccc21 | AGTR1 (Homo sapiens, UniProt P30556) | reporter gene, antagonist, luciferase | – | – | 0.00631 µM |
| Cc1nc(NC(=O)N2CCCC2)sc1-c1csc(C(C)(C)C)n1 | PI4KA (Homo sapiens, UniProt P42356) | enzyme activity, inhibitor | – | – | > 10 µM |
| N#Cc1cnc(Nc2nc3ccccc3o2)nc1-c1ccc(Cl)c(Cl)c1 | Grm5 (Rattus norvegicus, UniProt P31424) | calcium signal, antagonist | – | – | > 10 µM |
| CN(C)c1ccc2cc(S(=O)(=O)N3CC3C(N)=O)ccc2c1 (stereo not drawn) | P4HB | enzyme activity, inhibitor, absorbance | – | pH 7.6 | 33 µM |
| O=c1[nH]c(=O)c2ncn(CCOCP(=O)(O)OP(=O)(O)OP(=O)(O)O)c2[nH]1 | DNA polymerase catalytic subunit (Human cytomegalovirus, UniProt P08546) | enzyme activity, inhibitor, radiometric | – | – | > 100 µM |
| CC(C)C[C@H](NC(=O)CNC(=O)[C@H](Cc1ccccc1)NC(=O)[C@H](CO)NC(=O)[C@H](CC(N)=O)NC(=O)[C@H](Cc1c[nH]c2ccccc12)NC(=O)[C@H](CC(N)=O)NC(=O)[C@@H](N)Cc1ccc(O)cc1)C(=O)N[C@@H](CCCNC(=N)N)C(=O)N[C@@H](C)C(N)=O | KiSS-1 receptor (KISS1R, Homo sapiens, UniProt Q969F8) | ligand displacement, radioligand | – | cell membranes | > 0.2 µM |
| Nc1nc(Cl)nc2c1ncn2Cc1cc(OCC(F)F)cc(OC(F)F)c1 | PDE5A | enzyme activity, inhibitor | – | – | 4.83 µM |
| CC(C)c1c(-c2cccc3[nH]ccc23)[nH]c(C(=O)O)c1-c1c(Cl)ccc2[nH]ccc12 | E3 ubiquitin-protein ligase RING2, with BMI1 (RNF2, Homo sapiens, UniProt Q99496) | RING1B-BMI1-nucleosome binding, AlphaScreen | – | – | 2 µM |
| N#Cc1cccc(/C=C/C(=O)c2ccc(O)cc2)c1 | P4HB | enzyme activity, inhibitor | – | – | 0.93 µM |
| OC(c1ccccc1)(c1cccs1)c1ccccc1Cl (stereo not drawn) | Gap junction alpha-8 protein (Gja8, Mus musculus, UniProt P28236) | gap junction current, inhibitor, dual whole-cell voltage clamp | transfected mouse N2a cell pairs | – | 2 µM |
| CC[C@H](C)[C@H](NC(C)=O)C(=O)N[C@H](CC(=O)N[C@H](C(=O)N[C@@H](C)C(=O)N[C@@H](CCC(N)=O)C(=O)N[C@@H](CCC(=O)O)CC(=O)N[C@@H](CC(C)C)C(=O)N[C@@H](CCCNC(=N)N)C(=O)N[C@@H](CCCNC(=N)N)CC(=O)N[C@H](C(=O)NCC(=O)N[C@@H](CC(=O)O)C(=O)N[C@@H](CCC(=O)O)CC(=O)N[C@@H](Cc1ccccc1)C(=O)N[C@@H](CC(N)=O)C(=O)N[C@@H](C)CC(=O)N[C@@H](Cc1ccc(O)cc1)C(=O)N[C@@H](Cc1ccc(O)cc1)C(N)=O)[C@@H](C)CC)[C@@H](C)CC)Cc1c[nH]c2ccccc12 | BCL2L2 (Homo sapiens, UniProt Q92843) | competition SPR | – | pH 7.4, with: BimBH3 peptide | 0.62 ± 0.035 µM |
| C/C=C/C(=O)Nc1ccc2nc(NCCCCCN(C)C)nc(NCCCCCCN(C)C)c2c1 | Chromodomain Y-like protein 2, chromodomain (CDYL2, Homo sapiens, UniProt Q8N8U2) | methyl-lysine binding, TR-FRET | – | – | > 100 µM |
| CN(C)C(=O)C1CN1S(=O)(=O)c1ccc(N(C)C)c2ccccc12 (stereo not drawn) | P4HB | enzyme activity, inhibitor, absorbance | – | pH 7.6 | 0.75 µM |
| COc1cc2nccc(Oc3ccc(NC(=S)NC4CC=C(F)CC4)c(Cl)c3)c2cc1C(N)=O (stereo not drawn) | FGFR1 | – | – | – | 7.48 µM |

| Structure (SMILES) | target | assay | test system | setting | IC50 |
| --- | --- | --- | --- | --- | --- |
| NC(Cc1cn(CCc2ccccc2F)nn1)c1ccccc1 (stereo not drawn) | Endothiapepsin (EAPA, Cryphonectria parasitica, UniProt P11838) | enzyme activity, inhibitor, fluorescence | – | – | 94 µM |
| COc1cc2nccc(Oc3ccc(NC(=S)NC4CC4)c(Cl)c3)c2cc1C(=O)NC1CC1 | FGFR1 | – | – | – | 6.8 µM |
| N[C@@H](CCC(=O)N[C@@H](CS[Se]Cc1ccc(C(=O)Nc2cc(C(F)(F)F)c(Br)c(C(F)(F)F)c2)cc1)C(=O)NCC(=O)O)C(=O)O | Receptor-type tyrosine-protein phosphatase F (Homo sapiens, UniProt P10586) | enzyme activity, inhibitor | – | with: pNPP, GSH 1 mM | > 100 µM |
| COc1ccc(S(=O)(=O)NCc2c[nH]nc2-c2cccs2)cc1 | Myosin A, motor domain (Cryptosporidium parvum, UniProt Q5CY39) | actin-activated ATPase | – | upper bound, enzyme-limited | < 0.1 µM |
| FC(F)(F)c1ccccc1/N=c1\oc2ccccc2cc1-c1ccccc1 | PTGS2 (Homo sapiens, UniProt P35354) | enzyme activity, inhibitor | – | – | 0.0078 µM |
| N[C@@H](CC#CCN1CCCC1)C(=O)O | collagenase | gelatin hydrolysis, inhibitor | – | – | 1520 µM |
| COCCCN1CCc2c(Cc3ccc(Cl)cc3)[nH]c3c(OC(F)F)ccc(c23)C1=O | PDE5A | enzyme activity, inhibitor | – | – | 0.0083 µM |
| CCCN(CC(=O)N(CCC)CC(=O)N(CCC)CC(=O)N(CCC)CC(=O)N(CCC)CC(=O)N(CCC)CC(=O)N(CC(N)=O)Cc1cn(CCCNC(=O)CCCOc2cccc(-c3nc4ccc(-c5nc6ccc(N7CCN(C)CC7)cc6[nH]5)cc4[nH]3)c2)nn1)C(=O)CNCc1cn(CCCNC(=O)CCCOc2cccc(-c3nc4ccc(-c5nc6ccc(N7CCN(C)CC7)cc6[nH]5)cc4[nH]3)c2)nn1 | MBNL1–r(CUG)109 complex | MBNL1 displacement | – | with: bulk yeast tRNA competitor | > 30 µM |
| O=C(CS(=O)(=O)c1cccs1)C12CC3CC(CC(C3)C1)C2 | HSD11B1 (Homo sapiens, UniProt P28845) | enzyme activity in cells, inhibitor | – | – | 0.667 µM |
| NCc1cn([C@@H]2[C@@H](O[C@H]3C[C@H](C(=O)NCc4ccc(CO)cc4)[C@@H](C(=O)NCc4ccc(CO)cc4)C[C@@H]3OCCCl)O[C@H](CO)[C@@H](O)[C@@H]2O)nn1 | CD209 antigen (CD209, Homo sapiens, UniProt Q9NNX6) | cell-free assay, SPR | – | – | 76 µM |
| O=C(N[C@@H](Cc1coc2ccccc12)B(O)O)[C@@H]1C[C@H]2CC[C@@H]1O2 | Proteasome subunit beta type-10 / Proteasome subunit beta type-3 | MECL-1 enzyme activity, inhibitor | human immunoproteasome | 2 h preincubation, with: Ac-RLR-AMC | > 30 µM |
| COc1cc2nccc(Oc3ccc(NC(=S)N[C@@H](C)CO)c(Cl)c3)c2cc1C(N)=O | FGFR1 | – | – | – | 0.635 µM |
| Cc1ccc(CNC(=O)C(CCc2ccccc2)NC(=O)C(NC(=O)Cc2cccc(Oc3ccccc3)c2)C(C)O)cc1 (stereo not drawn) | Proteasome subunit beta type-10 / Proteasome subunit beta type-3 | inhibitor | – | – | > 100 µM |
| NS(=O)(=O)c1ccc(/N=N/c2ccc(O)[nH]c2=O)cc1 | Semaphorin-3C, with neuropilin-1 (SEMA3C, Homo sapiens, UniProt Q99985) | SEMA3C binding, inhibitor, displacement | – | with: SEMA3C-AP | 19.6 µM |
| COc1cc2nccc(Oc3ccc(NC(=S)Nc4ccccc4)c(Cl)c3)c2cc1C(N)=O | FGFR1 | – | – | – | 6.1 µM |
| O=C(NCCCN1CCCC1)c1cccc(Br)c1 | Lethal(3)malignant brain tumor-like protein 3 (Homo sapiens, UniProt Q96JM7) | methyl-lysine reader binding, inhibitor, AlphaScreen | – | – | > 100 µM |
| O=C(O)[C@@H]1Cc2c([nH]c3ccccc23)[C@@H](c2ccc(Cl)cc2)N1 | MEP cytidylyltransferase IspD (Plasmodium falciparum, UniProt Q8I273) | enzyme activity, inhibitor, fluorimetric pyrophosphate | – | – | 0.51 ± 0.09 µM |
| C=CC(=O)N1CCCCC1C(=O)O (stereo not drawn) | Protein FosB, ΔFosB isoform (Fosb, Mus musculus, UniProt P13346) | ΔFOSB homodimer DNA binding, fluorescence polarization | – | 15 min, with: TMR-cdk5 oligonucleotide | 96.8 ± 7.2 µM |
| COc1cc(/C=C/c2cc(/C=C/c3ccc(O)c(OC)c3)n(-c3ccc([N+](=O)[O-])cc3[N+](=O)[O-])n2)ccc1O | Sterol carrier protein 2 (Helicoverpa armigera, UniProt K7NSY9) | displacement of 1,8-ANS, fluorescence | – | pH 7.0, 25 °C, with: 1,8-ANS 15 µM | 9.64 µM |

Repeated from above:
| Structure (SMILES) | target | assay | test system | setting | IC50 |
| --- | --- | --- | --- | --- | --- |
| CC[C@H](C)[C@H](NC(C)=O)C(=O)N[C@H](CC(=O)N[C@H](C(=O)N[C@@H](C)C(=O)N[C@@H](CCC(N)=O)C(=O)N[C@@H](CCC(=O)O)CC(=O)N[C@@H](CC(C)C)C(=O)N[C@@H](CCCNC(=N)N)C(=O)N[C@@H](CCCNC(=N)N)CC(=O)N[C@H](C(=O)NCC(=O)N[C@@H](CC(=O)O)C(=O)N[C@@H](CCC(=O)O)CC(=O)N[C@@H](Cc1ccccc1)C(=O)N[C@@H](CC(N)=O)C(=O)N[C@@H](C)CC(=O)N[C@@H](Cc1ccc(O)cc1)C(=O)N[C@@H](Cc1ccc(O)cc1)C(N)=O)[C@@H](C)CC)[C@@H](C)CC)Cc1c[nH]c2ccccc12 | BCL2L2 (Homo sapiens, UniProt Q92843) | competition SPR | – | pH 7.4, with: BimBH3 peptide | 0.62 ± 0.035 µM |
| C/C=C/C(=O)Nc1ccc2nc(NCCCCCN(C)C)nc(NCCCCCCN(C)C)c2c1 | Chromodomain Y-like protein 2, chromodomain (CDYL2, Homo sapiens, UniProt Q8N8U2) | methyl-lysine binding, TR-FRET | – | – | > 100 µM |
| CN(C)C(=O)C1CN1S(=O)(=O)c1ccc(N(C)C)c2ccccc12 (stereo not drawn) | P4HB | enzyme activity, inhibitor, absorbance | – | pH 7.6 | 0.75 µM |
| COc1cc2nccc(Oc3ccc(NC(=S)NC4CC=C(F)CC4)c(Cl)c3)c2cc1C(N)=O (stereo not drawn) | FGFR1 | – | – | – | 7.48 µM |
| NC(Cc1cn(CCc2ccccc2F)nn1)c1ccccc1 (stereo not drawn) | Endothiapepsin (EAPA, Cryphonectria parasitica, UniProt P11838) | enzyme activity, inhibitor, fluorescence | – | – | 94 µM |
| COc1cc2nccc(Oc3ccc(NC(=S)NC4CC4)c(Cl)c3)c2cc1C(=O)NC1CC1 | FGFR1 | – | – | – | 6.8 µM |
